Experimental data of several laboratories.
A part holds a random share of what one study measured. Values joined by “and” are separate records of one study, mostly repeats; a detail may differ.
Sequence of UniProt P42685 (whole entry, looked up): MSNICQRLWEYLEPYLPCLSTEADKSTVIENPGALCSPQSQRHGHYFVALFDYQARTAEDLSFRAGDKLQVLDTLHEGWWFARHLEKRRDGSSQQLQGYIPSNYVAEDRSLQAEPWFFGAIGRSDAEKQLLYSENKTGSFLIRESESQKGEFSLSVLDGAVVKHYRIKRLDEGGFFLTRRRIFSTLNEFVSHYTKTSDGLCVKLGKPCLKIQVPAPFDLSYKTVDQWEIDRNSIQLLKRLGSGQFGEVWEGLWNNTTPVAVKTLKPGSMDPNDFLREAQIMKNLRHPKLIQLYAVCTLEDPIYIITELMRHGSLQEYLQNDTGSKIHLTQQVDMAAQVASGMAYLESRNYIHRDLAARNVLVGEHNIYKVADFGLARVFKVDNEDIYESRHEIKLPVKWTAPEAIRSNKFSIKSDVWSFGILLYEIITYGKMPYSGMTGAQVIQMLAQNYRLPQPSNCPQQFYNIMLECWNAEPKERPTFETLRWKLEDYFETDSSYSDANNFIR
Sequence of UniProt P10721 (whole entry, unmodified, looked up): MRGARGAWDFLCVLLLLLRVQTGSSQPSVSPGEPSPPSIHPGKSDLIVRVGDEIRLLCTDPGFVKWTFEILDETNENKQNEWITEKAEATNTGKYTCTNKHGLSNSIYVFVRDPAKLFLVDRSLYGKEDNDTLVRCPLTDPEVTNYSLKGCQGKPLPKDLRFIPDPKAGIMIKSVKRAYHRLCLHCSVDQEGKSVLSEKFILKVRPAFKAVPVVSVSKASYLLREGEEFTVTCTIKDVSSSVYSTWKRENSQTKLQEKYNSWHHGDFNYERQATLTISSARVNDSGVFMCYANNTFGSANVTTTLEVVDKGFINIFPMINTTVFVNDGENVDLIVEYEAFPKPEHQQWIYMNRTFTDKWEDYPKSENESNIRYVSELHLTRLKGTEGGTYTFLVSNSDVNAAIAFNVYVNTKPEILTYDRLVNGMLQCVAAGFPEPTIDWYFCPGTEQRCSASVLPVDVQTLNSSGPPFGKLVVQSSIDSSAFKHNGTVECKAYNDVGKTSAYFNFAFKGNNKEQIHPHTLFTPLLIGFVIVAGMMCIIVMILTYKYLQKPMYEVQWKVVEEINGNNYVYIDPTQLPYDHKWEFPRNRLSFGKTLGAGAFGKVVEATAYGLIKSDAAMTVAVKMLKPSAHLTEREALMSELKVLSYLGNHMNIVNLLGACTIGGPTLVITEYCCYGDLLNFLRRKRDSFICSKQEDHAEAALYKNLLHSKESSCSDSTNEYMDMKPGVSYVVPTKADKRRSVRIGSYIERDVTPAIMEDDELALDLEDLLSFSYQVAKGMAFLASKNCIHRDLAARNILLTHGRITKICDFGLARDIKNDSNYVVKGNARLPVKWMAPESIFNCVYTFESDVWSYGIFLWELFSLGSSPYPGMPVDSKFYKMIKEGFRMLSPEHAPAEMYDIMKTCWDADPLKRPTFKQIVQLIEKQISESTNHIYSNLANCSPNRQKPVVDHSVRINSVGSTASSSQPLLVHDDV
Sequence of UniProt Q16853 (whole entry, looked up): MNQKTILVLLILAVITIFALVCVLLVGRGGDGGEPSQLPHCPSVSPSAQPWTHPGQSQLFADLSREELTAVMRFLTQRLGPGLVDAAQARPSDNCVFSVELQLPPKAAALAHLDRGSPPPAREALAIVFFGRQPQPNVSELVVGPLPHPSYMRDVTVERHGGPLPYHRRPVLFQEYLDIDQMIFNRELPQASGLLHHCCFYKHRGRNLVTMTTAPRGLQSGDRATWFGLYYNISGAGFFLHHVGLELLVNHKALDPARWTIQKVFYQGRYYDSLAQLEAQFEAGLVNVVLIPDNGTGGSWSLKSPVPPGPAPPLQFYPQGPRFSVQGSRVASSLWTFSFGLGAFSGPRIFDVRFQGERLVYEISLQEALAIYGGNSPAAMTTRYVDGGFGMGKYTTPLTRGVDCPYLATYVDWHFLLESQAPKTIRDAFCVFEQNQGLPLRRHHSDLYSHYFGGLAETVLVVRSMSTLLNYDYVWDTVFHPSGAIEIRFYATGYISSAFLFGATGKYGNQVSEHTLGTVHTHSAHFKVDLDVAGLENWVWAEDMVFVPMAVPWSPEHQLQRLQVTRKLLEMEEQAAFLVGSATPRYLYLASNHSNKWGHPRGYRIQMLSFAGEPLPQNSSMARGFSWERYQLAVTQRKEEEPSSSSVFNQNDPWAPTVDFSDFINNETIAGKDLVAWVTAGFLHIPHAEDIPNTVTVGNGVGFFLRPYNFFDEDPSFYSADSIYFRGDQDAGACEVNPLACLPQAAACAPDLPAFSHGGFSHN
Sequence of UniProt Q9NYA1 (whole entry, looked up): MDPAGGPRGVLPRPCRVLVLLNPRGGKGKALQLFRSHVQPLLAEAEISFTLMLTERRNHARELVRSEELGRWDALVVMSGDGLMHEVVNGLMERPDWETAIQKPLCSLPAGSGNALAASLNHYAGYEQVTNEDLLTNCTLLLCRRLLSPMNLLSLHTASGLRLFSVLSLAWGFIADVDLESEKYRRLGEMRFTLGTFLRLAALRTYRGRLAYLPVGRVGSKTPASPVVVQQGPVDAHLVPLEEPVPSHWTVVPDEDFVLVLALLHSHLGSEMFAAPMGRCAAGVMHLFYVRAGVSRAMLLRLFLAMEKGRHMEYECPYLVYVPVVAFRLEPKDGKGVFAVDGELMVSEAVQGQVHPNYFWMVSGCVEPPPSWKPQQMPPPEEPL

Sample 1
Compound: COc1cc(-c2nc3ccc(C(=O)NCCCN(C)C)cc3n2C2CCC2)cc(OC)c1OC
Observed: binding
Method: competition with immobilised ligand
Concentration: 1 µM
target	remaining binding [%]
CDPK1 (Plasmodium falciparum, UniProt P62344)	95
ULK1 (Homo sapiens, UniProt O75385)	86
ULK3 (Homo sapiens, UniProt Q6PHR2)	99
STK36 (Homo sapiens, UniProt Q9NRP7)	93
MAP3K12 (Homo sapiens, UniProt Q12852)	100
Aurora kinase C (AURKC, Homo sapiens, UniProt Q9UQB9)	96
FRK (Homo sapiens, UniProt P42685)	83
CIT (Homo sapiens, UniProt O14578)	86
MAP3K5 (Homo sapiens, UniProt Q99683)	82
TAOK2 (Homo sapiens, UniProt Q9UL54)	100
PIP5K1A (Homo sapiens, UniProt Q99755)	98
GRK4 (Homo sapiens, UniProt P32298)	82
CLK4 (Homo sapiens, UniProt Q9HAZ1)	85
eIF-2-alpha kinase GCN2, C-terminal kinase domain (EIF2AK4, Homo sapiens, UniProt Q9P2K8, S808G)	90
KIT (Homo sapiens, UniProt P10721, T670I/V559D)	80
CDKL1 (Homo sapiens, UniProt Q00532)	76
PIK3CD (Homo sapiens, UniProt O00329)	65

Sample 2
Structure (SMILES): CN(C1COC1)C(C)(C)/C=C(\C#N)C(=O)N1CCC[C@H]1Cn1nc(-c2ccc(Oc3ccccc3)cc2F)c2c(N)ncnc21
Observed: kinase activity
target	setting	inhibition [%]
MET (Homo sapiens, UniProt P08581)	0.1 µM	2
CLK2 (Homo sapiens, UniProt P49760)	0.1 µM	4
SRPK2 (Homo sapiens, UniProt P78362)	0.1 µM	-4
GRK7 (Homo sapiens, UniProt Q8WTQ7)	0.1 µM	7
EPHA4 (Homo sapiens, UniProt P54764)	0.1 µM	2
SGK3 (Homo sapiens, UniProt Q96BR1)	1 µM	4
TNK2 (Homo sapiens, UniProt Q07912)	0.1 µM	3
Cyclin-dependent kinase 4, with cyclin D (CDK4, Homo sapiens, UniProt P11802)	1 µM	0
PRKG2 (Homo sapiens, UniProt Q13237)	0.1 µM	0
Protein kinase C beta type, isoform beta-II (PRKCB, Homo sapiens, UniProt P05771)	1 µM	3
PAK4 (Homo sapiens, UniProt O96013)	0.1 µM	-2
PDGFRA (Homo sapiens, UniProt P16234)	1 µM	11
DYRK4 (Homo sapiens, UniProt Q9NR20)	0.1 µM	4
RIPK2 (Homo sapiens, UniProt O43353)	0.1 µM	64
SPHK1 (Homo sapiens, UniProt Q9NYA1)	1 µM	-5

Sample 3
SMILES: C[C@@H]1CN(c2ccc(-c3cc(C(=O)NCCOCCOCCOCCOCCOCCOCCNC(=O)/C=C/c4[nH]cc(C(=O)N[C@@H](CC(N)=O)c5ccc(F)c(Cl)c5)c4-c4ccc(Cl)cc4F)ccc3F)cc2NC(=O)c2ccc(F)cc2C(F)(F)F)C[C@H](C)N1C
Observed: thermal unfolding
Method: differential scanning fluorimetry
Concentration: 5.5 µM
Reading: higher = more unfolded
WDR5: WD repeat-containing protein 5 (WDR5, Homo sapiens, UniProt P61964)
DCAF1: DDB1- and CUL4-associated factor 1 (DCAF1, Homo sapiens, UniProt Q9Y4B6)
Sequence of UniProt Q9Y4B6 (whole entry, looked up): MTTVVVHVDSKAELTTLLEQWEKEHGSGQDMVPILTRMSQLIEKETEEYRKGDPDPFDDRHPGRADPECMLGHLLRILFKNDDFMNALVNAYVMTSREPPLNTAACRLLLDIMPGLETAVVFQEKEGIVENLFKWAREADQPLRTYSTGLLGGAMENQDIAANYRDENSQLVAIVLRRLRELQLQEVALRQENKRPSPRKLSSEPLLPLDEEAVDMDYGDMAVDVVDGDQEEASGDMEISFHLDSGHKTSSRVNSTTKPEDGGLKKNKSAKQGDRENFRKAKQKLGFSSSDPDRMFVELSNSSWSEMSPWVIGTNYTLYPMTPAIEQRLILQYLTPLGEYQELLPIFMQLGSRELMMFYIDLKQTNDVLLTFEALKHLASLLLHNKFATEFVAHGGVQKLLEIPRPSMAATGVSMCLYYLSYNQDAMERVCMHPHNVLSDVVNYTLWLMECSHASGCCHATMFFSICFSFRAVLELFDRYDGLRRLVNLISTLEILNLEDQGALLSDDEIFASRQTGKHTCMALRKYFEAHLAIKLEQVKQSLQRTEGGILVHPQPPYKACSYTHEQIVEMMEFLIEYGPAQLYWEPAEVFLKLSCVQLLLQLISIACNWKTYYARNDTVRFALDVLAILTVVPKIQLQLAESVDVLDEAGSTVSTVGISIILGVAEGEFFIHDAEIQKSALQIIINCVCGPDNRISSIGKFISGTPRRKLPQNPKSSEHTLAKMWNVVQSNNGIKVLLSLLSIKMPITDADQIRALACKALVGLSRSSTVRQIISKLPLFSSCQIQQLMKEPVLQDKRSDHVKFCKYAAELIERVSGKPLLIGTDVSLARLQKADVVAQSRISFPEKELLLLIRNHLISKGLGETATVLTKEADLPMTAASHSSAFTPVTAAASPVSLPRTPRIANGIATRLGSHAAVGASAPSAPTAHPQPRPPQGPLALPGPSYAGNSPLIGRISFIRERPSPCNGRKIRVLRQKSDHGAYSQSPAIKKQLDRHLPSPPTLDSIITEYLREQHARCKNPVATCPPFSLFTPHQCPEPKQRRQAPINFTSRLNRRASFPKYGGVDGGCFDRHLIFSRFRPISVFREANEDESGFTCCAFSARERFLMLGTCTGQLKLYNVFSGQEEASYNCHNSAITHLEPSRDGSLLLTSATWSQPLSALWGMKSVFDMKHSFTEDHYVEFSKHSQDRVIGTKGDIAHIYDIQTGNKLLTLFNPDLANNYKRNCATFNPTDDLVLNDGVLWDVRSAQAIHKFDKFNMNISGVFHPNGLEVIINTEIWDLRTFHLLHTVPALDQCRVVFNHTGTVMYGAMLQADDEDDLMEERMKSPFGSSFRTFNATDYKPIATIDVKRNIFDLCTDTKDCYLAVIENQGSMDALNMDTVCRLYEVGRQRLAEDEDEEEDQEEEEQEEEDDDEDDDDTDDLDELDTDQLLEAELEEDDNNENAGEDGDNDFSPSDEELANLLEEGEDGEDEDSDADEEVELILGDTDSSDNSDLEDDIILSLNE
target	setting	SYPRO Orange fluorescence [a.u.]
WDR5	30.6 °C	13600
DCAF1	35.8 °C	10200
DCAF1	41.8 °C	12700
WDR5	71.41 °C	33000
DCAF1	54.81 °C	26400
WDR5	60.61 °C	15200
WDR5	56.01 °C	16300

Sample 4
SMILES: NC/C(=C\F)COc1ccc(Cn2c(=S)[nH]c(=O)c3[nH]cnc32)cc1
Observed: enzyme activity
MPO: Myeloperoxidase (MPO, Homo sapiens, UniProt P05164)
Sequence of UniProt P05164 (whole entry, looked up): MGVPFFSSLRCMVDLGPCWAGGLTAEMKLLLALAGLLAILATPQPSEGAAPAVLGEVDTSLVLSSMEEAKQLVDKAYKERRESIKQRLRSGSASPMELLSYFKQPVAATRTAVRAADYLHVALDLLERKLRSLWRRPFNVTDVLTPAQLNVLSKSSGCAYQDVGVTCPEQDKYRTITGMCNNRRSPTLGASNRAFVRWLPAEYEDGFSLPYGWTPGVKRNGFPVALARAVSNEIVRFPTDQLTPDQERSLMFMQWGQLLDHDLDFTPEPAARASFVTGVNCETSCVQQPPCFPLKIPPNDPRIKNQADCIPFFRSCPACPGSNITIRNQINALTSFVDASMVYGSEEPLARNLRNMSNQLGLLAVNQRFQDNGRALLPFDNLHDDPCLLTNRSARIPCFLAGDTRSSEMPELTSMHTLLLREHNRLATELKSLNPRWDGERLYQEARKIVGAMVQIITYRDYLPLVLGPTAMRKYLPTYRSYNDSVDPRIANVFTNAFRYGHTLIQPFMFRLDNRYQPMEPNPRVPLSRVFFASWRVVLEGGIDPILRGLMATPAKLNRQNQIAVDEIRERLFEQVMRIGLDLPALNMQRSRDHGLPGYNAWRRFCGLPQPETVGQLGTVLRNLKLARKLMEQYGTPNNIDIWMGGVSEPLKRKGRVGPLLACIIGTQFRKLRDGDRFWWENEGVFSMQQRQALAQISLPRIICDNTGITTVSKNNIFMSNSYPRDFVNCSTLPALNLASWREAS
target	test	setting	inhibition
MPO	inhibitor, fluorescence	1.111 µM	5.45%
AOC3 (Homo sapiens, UniProt Q16853)	inhibitor, fluorescence	1.4 nM	37.6%
MPO	inhibitor, fluorescence	13.7 nM	-1.41%
MPO		33.33 µM	41.6% and 54.6%
MPO		0.4115 µM	-3.44% and 6%
MPO	inhibitor, fluorescence	0.1235 µM	0.467%

Some of these lines once more (sample 2):
target	setting	inhibition [%]
SGK3 (Homo sapiens, UniProt Q96BR1)	1 µM	4
DYRK4 (Homo sapiens, UniProt Q9NR20)	0.1 µM	4
PDGFRA (Homo sapiens, UniProt P16234)	1 µM	11
Protein kinase C beta type, isoform beta-II (PRKCB, Homo sapiens, UniProt P05771)	1 µM	3
PAK4 (Homo sapiens, UniProt O96013)	0.1 µM	-2
GRK7 (Homo sapiens, UniProt Q8WTQ7)	0.1 µM	7
Cyclin-dependent kinase 4, with cyclin D (CDK4, Homo sapiens, UniProt P11802)	1 µM	0
SRPK2 (Homo sapiens, UniProt P78362)	0.1 µM	-4
